Results of several laboratories.
A part holds a random share of what one study measured.

Study 1
Target: Prothrombin, mature alpha-thrombin (F2, Homo sapiens, UniProt P00734)
Technique: aptamer microarray, sandwich
Form: DNA with 2'F-ANA
Sample: in vitro
Concentration: 200 nM
Notes: whole 15-mer aptamer, many near background
Added: Cy3 exosite-II aptamer, 400 nM
Reading: higher = stronger binding
Oligonucleotide: GGTTGGTGTGGTTGG
Modification	mean fluorescence intensity
2'F-ANA at 1 2 3 4 8 9 10 11 12 13 15	62.1 a.u.
2'F-ANA at 1 2 4 7 9 10 11	48.2 a.u.
2'F-ANA at 2 3 4 5 7 10 12 13 14 15	49.4 a.u.
2'F-ANA at 3 4 6 7 9 13	391 a.u.
2'F-ANA at 1 3 5 8 10 12 14	50 a.u.
2'F-ANA at 1 2 7 8 10 12	61.2 a.u.
2'F-ANA at 3 4 5 8 9 10	54.1 a.u.
2'F-ANA at 1 3 8 9 11 12 14	110 a.u.
2'F-ANA at 4 6 8 11 13 14 15	72.3 a.u.
2'F-ANA at 1 2 3 6 7 8 10 12	92.3 a.u.
2'F-ANA at 7 9 13 14	201 a.u.
2'F-ANA at 1 2 3 4 6 8 11 12 15	277 a.u.
2'F-ANA at 5 10 12 13 14 15	44.9 a.u.
2'F-ANA at 3 4 7	821 a.u.
2'F-ANA at 4 6 7 10 11	74.9 a.u.
2'F-ANA at 1 2 3 5 7 11 14 15	52 a.u.
2'F-ANA at 2 7 11 15	461 a.u.

Study 2
Target: Interferon regulatory factor 5, full length, phosphomimetic (IRF5, Homo sapiens, UniProt Q13568-2, residues 1-514, K96S/S451D/S453D/S456D/S462D)
Technique: protein-binding microarray
Form: double-stranded DNA, one strand shown
Sample: in vitro
Concentration: 250 nM
Notes: 60-bp whole probe
Added: salmon DNA 0.4 mg/ml
Relative to: random background probes
Reading: higher = stronger binding
All sequences stand within: GCCTAGCAC … GTCTTGATTCGCTTGACGCTGCTG
Oligonucleotide	log fluorescence
TTAGGACTGGACTATCGTTTAGTGCTA	1.69 z-score
TTAGGACTGGGTATCGGTTAGTGCTAG	4.41 z-score
GACGGTATCGGGCCTGGGGACGTGCTA	0.883 z-score
GGTCTTCTGGGCTGTTTAGTCGTGCTA	-0.517 z-score
TTTGATATCAGACTGGATTAGTGCTAG	0.462 z-score
AAATATATACAAACTAAGGATGTGCTA	0.543 z-score
TTCTTAATGCTTCTGGGCCAGTGCTAG	0.0288 z-score
TTCCTTTCTCTTCCGTTAGCGTGCTAG	3.28 z-score
GACGGTCTCCTACTGCTGAAGTGCTAG	-0.304 z-score
TCAATTATTGTTTCCTTACTGTGCTAG	1.4 z-score
TTAGGACCGGACACTGGGTTAGTGCTA	-0.681 z-score
TTAGACCTGGGGTTTCGATTAGTGCTA	5.42 z-score
CTTTAACTCATTTTCGTTTTGTGCTAG	5.03 z-score
GACGGATTGGACTATCGGGACGTGCTA	0.938 z-score
CTGATCCTTCATTTGAAAGAGTGCTAG	0.196 z-score
GACGGTATCGGGTTTAGGGACGTGCTA	2.18 z-score
GACGAACTGGGGTTTCGTGACGTGCTA	0.263 z-score
GACGATTTCAGACTGGCGACGTGCTAG	0.185 z-score
CTAGGTTTCCTTCTCCTTTAGTGCTAG	0.955 z-score
GACGGAATGCTTATCCTGACGTGCTAG	-0.0618 z-score
TCAGGTATTTTTTTCTAACTGTGCTAG	0.399 z-score
GACGGTATCCTTTTCCTGGCGTGCTAG	0.253 z-score
GACTGTTTCCTTCTCCTGACGTGCTAG	0.966 z-score
TTAGATTTCAGGTCCGATTAGTGCTAG	1.1 z-score
AGGGCGGCTGAGTCAGCACAGTGCTAG	-0.745 z-score

Study 3
Target: Phosphate system positive regulatory protein PHO4, full length, GST-tagged (PHO4, Saccharomyces cerevisiae, UniProt P07270, residues 1-312)
Sequence of UniProt P07270 (whole entry, looked up): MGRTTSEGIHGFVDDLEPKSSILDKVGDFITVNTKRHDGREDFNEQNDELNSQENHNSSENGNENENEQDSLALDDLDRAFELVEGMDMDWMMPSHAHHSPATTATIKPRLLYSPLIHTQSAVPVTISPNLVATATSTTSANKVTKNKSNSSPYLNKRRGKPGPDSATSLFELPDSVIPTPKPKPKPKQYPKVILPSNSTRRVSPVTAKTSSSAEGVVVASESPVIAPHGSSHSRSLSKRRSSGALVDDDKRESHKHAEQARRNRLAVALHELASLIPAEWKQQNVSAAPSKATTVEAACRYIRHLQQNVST
Technique: competition protein-binding microarray
Form: double-stranded DNA, one strand shown
Sample: in vitro
Concentration: 2 µM
Notes: whole 60-bp probe, lowest competitor level
Added: Cbf1 competitor, 0.05 µM
Reading: higher = stronger binding
All sequences stand within: … GTCTTGATTCGCTTGACGCTGCTG
Oligonucleotide	fluorescence intensity
CTAGATGTCAAAAGGCTTGTGACAGTATGTGGAGAA	4640 a.u.
GAAAAAAGAAATGGACACGTGTAGGTCAAGGCATTA	15600 a.u.
AATCATTTAGTCCATCACGTCAACCTGTCTAAAATA	4270 a.u.
GTTCGCATCGTCCGTCACAGCAGCACCAAACACAGG	5410 a.u.
GCCAGTTTTTCGTTGCTCGTGCAAAGTGAGACGGTG	8820 a.u.
TGCGCAACAACTTGTGAGGTGGGTGTATGTCTAGAA	5010 a.u.
CTTCTGTAAATTTGCTCCGTGGGTGGACGCGCCCCG	5610 a.u.
AGGGTGGTATGGATACACGGGAAGCTTGGGTGCTGC	5560 a.u.
AAAGCGGTAATTTGGTGTGTGGGTGCAGATATCTAT	5780 a.u.
AAGGGCAAAAAAGCTCACATGACAAGCTTGTTTTGG	5430 a.u.
CACTTCACCAAACACAACGTGCTTTCCGTCCAAATG	16700 a.u.
CGTCCTAGCGATTGACGTGTGGGTGCCATGAGGAAG	8450 a.u.
GTGACGAAAACGGATGCCATGTTCCAGCACCAACTG	5500 a.u.
GAACTACGCTACTACGTCGTGGGTATTCTGGAGAAG	7280 a.u.
ACACTTTTGGCTCAACTCGTGTGGACAAAGCGATCT	8520 a.u.
ATCGTTTATAGTGGGCATGTGGCTGGTTGAACAATG	13800 a.u.
CTGGGGATGTTTCCGCACATGAGGGGGGCAGAGGTT	7270 a.u.
CGTCCTAGTGATTGCATTGTGGGTGCCATGAGGAAG	7780 a.u.
AAAGAACTCCCTTCGCATGTGATGAAGGTTATAGGT	9270 a.u.
TGCGCAACAACTTGGCTGGTGGGTGTATGTCTAGAA	4620 a.u.
TGCGAAAAGATTTCACACGTCAGTAAATCCGCGCAA	4480 a.u.

Study 4
Target: RNA binding protein fox-1 homolog 2, RRM domain, GST-SBP tag (RBFOX2, Homo sapiens, UniProt O43251-10, residues 100-194)
Technique: RNA Bind-n-Seq
Form: RNA
Sample: in vitro
Concentration: 365 nM
Notes: natural RNA segment, single round, ends assumed
Relative to: no-protein control
Reading: higher = stronger binding
All sequences stand within: GGGAGUUCUACAGUCCGACGAUC … UGGAAUUCUCGGGUGCCAA
Construct (chain): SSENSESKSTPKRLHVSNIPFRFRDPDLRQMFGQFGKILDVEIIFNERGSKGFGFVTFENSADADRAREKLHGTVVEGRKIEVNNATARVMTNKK
Oligonucleotide	RBNS enrichment (R)
UGUAACGCAUGUAAGAUGCUUAGGGUGCCUGGCCAGGACUCCGUGGUUUCCUGUUGUGACAGUAAUAAUGGUUAUAAUAAUAAAAAUGAUAAAAUUGCCAUCAUUCUAUU	9.57
CCUUCAGGCACCGACGCCCAACCUGCCGUGACCUGUGCUGUAUGAACAACCUCACUGAGGAUUUCCUCCCGGCAGAAAAGCAGCAAGCUCUGCAAAUAUCCCAAAGUUAU	0.342
UUCCGACUUUUCAAAAAUUUGAUUAAAUGGUUUUAUAGUAUAAUAUUGGGACCCCAUACCGUUAGCCCUUGUAUGUAUACCAACACUGCCAAAGUAAAACAUUAGGUCAG	0.691
AAUGCAUACUGCUGGCCAAUCAGUGUCAUCUCCUGGGUAAAUUUUGAUGUCGCAUUAUAAAGACAUGCAUAAUUGAUGGUUUCUAGAUUAUCUAGUCCAAACAAUAGAGU	0.538
CAACACUGUCGCACCCUUGACCAGCACUCCUCUGUGCUGACUUCAGGCCCUGUGUGACAACAGUAAGAGCUGGGUUUUGUUAUUCUCUAGAAUGGCUCCAGCUGUGGGUG	0.207
GAAACCACAAGGCAUUUGAUGCUACCGUUCUGGUCAGGGAUUGGGCUGCUUCUUCAGUUCCUAAUACCAGACCAAGCCUCCUGAUGCCUUUCUGCACUGCAACUGUGUGA	0.412
UUCUCCUUGUUAUUCAUUUUGGGCUUUUUGAUGAAACCACCAGGGCAUCACAUAUACUAAGCAUGUGCUCUACCAUCAUGCUAUGCUUCCAGCUCAGGGGGGCACUUUUA	1.29
GAACUAAAUGAAGGUUAAAACAUGCUUUAGAAAAAUGCACUGAUCUCCGCACUGUGUGUACAGUAUUGGACAAAGGAUUUAUUCAUUUUGUUGCAUUAUUUUGAAUAUUG	0.517
GAGUCACUGGAUAUCAGUGGAGACUACUGUGGUCUUCCCACGCAUGGGCCGUGGCUUUCAGUUCUCAGCACAGACAUCUGUGUUUUUCUCGUCCAACCCUAAGCCUCUUC	3.54
AUCUCUUUUUUAAAAAAGGGGGUUUGACUAUUGUUGGCAUUCUUGUGGUUCCUUUAAAUGCCCUUACCUCUCCCAAGAGGUUGUUUUGUUUUGUUUUCCUCCCUUUUCUC	0.773
UAUUUAAUGUAGUUUCCCAUCCCUAGUCUUCUAUGUCUGUGAUGUUAAUUUCUUUUGUUGCAUAACAAAAUAAAAGAAUUAUGUAUUUUUAACUAAGGAGAGACAUACUG	0.715
UUUCUAAAAGAGCAUGUACAAAAGUGGCCUGUGGACAUUUAGGCCUGGGUGAUGCAUUUGCUCUUCCUGUUUGUGCCAAUGUAUCAAUGUAGAGUUGCUCUGUUUUCUUC	1.3

Repeated from above (study 3):
Oligonucleotide	fluorescence intensity
GTGACGAAAACGGATGCCATGTTCCAGCACCAACTG	5500 a.u.
GAACTACGCTACTACGTCGTGGGTATTCTGGAGAAG	7280 a.u.
ACACTTTTGGCTCAACTCGTGTGGACAAAGCGATCT	8520 a.u.
ATCGTTTATAGTGGGCATGTGGCTGGTTGAACAATG	13800 a.u.
CTGGGGATGTTTCCGCACATGAGGGGGGCAGAGGTT	7270 a.u.
CGTCCTAGTGATTGCATTGTGGGTGCCATGAGGAAG	7780 a.u.
